Measured values pooled from the literature.
A part holds a random share of what one study measured.

Series 1
Target: TAR DNA-binding protein 43, full length, His tag (TARDBP, Homo sapiens, UniProt Q13148, residues 1-414)
Method: RNA Bind-n-Seq
Molecule type: RNA
Medium: in vitro
Tested at: 20 nM
Setting: 6-mer, flanks averaged, single round
With: 150 mM KCl
Relative to: input library
Reading: higher = stronger binding
Measurement: 6-mer enrichment (R)
AAUGUA: 0.77
AAUAAG: 0.962
CCCUUU: 0.694
UAGUCU: 0.571
ACCAGG: 1.14
UUGCCU: 0.657
UUCGGC: 0.747
AGGGAG: 4.96
GUAAUU: 0.649
GUUAGU: 0.828
CUAUAU: 0.574
UCUGUU: 0.612
CAGACU: 0.631

Series 2
Target: RNA binding protein fox-1 homolog 2, RRM domain, GST-SBP tag (RBFOX2, Homo sapiens, UniProt O43251-10, residues 100-194)
Method: RNA Bind-n-Seq
Molecule type: RNA
Medium: in vitro
Tested at: 365 nM
Setting: natural RNA segment, single round, ends assumed
Relative to: no-protein control
Reading: higher = stronger binding
Measurement: RBNS enrichment (R)
Constant ends, left off below: GGGAGUUCUACAGUCCGACGAUC … UGGAAUUCUCGGGUGCCAA
Target sequence (chain): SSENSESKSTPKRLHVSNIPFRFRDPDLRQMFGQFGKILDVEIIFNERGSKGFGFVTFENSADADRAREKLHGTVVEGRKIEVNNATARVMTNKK
GGGACUGAGGUUCUUCAGAGAAAGAGUGUGAGCUGAUGACACAGUGGUUUUACACCCACCCCCUGGGCAGGGAGUUUGCACGUAGUUGUGAGCUGUGAGUGGUUAGUGCA: 4.03
CCGUCCUGCUCAUGUGGUAGGCUAGCAAUAUUUUGGUUAAAAUCAUGUUUGUGACUGUAACCAUUUGUAUGAAUUAUUUUAAAGAAAUAAAAAUCCCAGAAAGAGCCGGC: 0.457
GGUACUGAAAAUAACAUGAUGCUUGCUUGGAGUAUGAUGCUAUGUCACCCAAGUCACAGGAUGAUUAUUAAAAGAACACACACACCAAAAAACAUACUUAUCCUAAAGAG: 0.566
UCAGAAUAAUCCUCACAGUUCUGGAAGAUUGAAAAACCAAGUUCACAUGACAAGAACAAACCCGGUUUUAAGGGUUGAAUGUAGGGGGAUACCAUUCUGUCUUUUAGACU: 0.656
AAAUGACAUUGUGAACACAGUAUUAUUGUGGGAAGAGGGCAUUUGGAUUUCUCAAUGUUUGUGAUAUUUUUGUUCCCAAGGCAUCUUAGGAGUACUUGGAUCAUAGCUUU: 0.345
GUAAGAUAGUUAAGUUAUUCAAAGAGUGUUACCCUCCUUGCAAGAGUAACUGAAGCACAUUGGAAAGAUUCUCAAUUUUGUGUUUCCUGUAAAAACAGUGCUCUCUGCUG: 0.23
CACAAACUCUGAAGCCAGUGUCUAGCUUACUAAAAAAAGAGUUGUAUAUAAUAUUUAAGAUGCUGAGUAUUUCAUAGGAAAGCUGAAUGCUGCUGUAAAGUGCUCUUUAA: 0.845
UGGAAGGUUGACCUACUUGGAUCUUGGCAUGCACCCACCUAACCCACUUUCUCAAGAACAAGAACCUAGAAUGAAUAUCCAAGCACCUCGAGCUAUGCAACCUCUGUUCU: 1.22

Series 3
Target: Prothrombin, mature alpha-thrombin (F2, Homo sapiens, UniProt P00734)
Method: aptamer microarray, sandwich
Molecule type: DNA with 2'F-ANA
Medium: in vitro
Tested at: 200 nM
Setting: whole 15-mer aptamer, many near background
With: Cy3 exosite-II aptamer, 400 nM
Reading: higher = stronger binding
Measurement: mean fluorescence intensity
Sequence: GGTTGGTGTGGTTGG
2'F-ANA at 1 2 3 4 8 11 12 14: 81.2 a.u.
2'F-ANA at 1 2 3 4 5 6 10 11 14 15: 51 a.u.
2'F-ANA at 3 6 7 9 10: 468 a.u.
2'F-ANA at 2 3 5 6 7 9 14 15: 194 a.u.
2'F-ANA at 1 2 3 5 6 7 8 9 14 15: 106 a.u.
2'F-ANA at 1 2 4 6 9 12 14 15: 58.8 a.u.
2'F-ANA at 4 7 11 14 15: 136 a.u.
2'F-ANA at 4 5 8 9 12 13: 94.1 a.u.
2'F-ANA at 1 4 5 6 7 12 13 14 15: 49.1 a.u.
2'F-ANA at 1 2 3 5 6 8 9 10 13: 50.9 a.u.
2'F-ANA at 4 5 6 7 8 9 13 14 15: 83.4 a.u.
2'F-ANA at 6 8 9 10 12: 170 a.u.
2'F-ANA at 2 4 6 7 14 15: 101 a.u.
2'F-ANA at 2 5 6 9 11 15: 57.1 a.u.
2'F-ANA at 1 2 3 5 8 9 12 14 15: 52.4 a.u.
2'F-ANA at 1 2 3 5 6 9 10 12 15: 53.2 a.u.
2'F-ANA at 1 4 5 6 11 13: 51 a.u.
2'F-ANA at 2 5 6 10 13: 46.1 a.u.
2'F-ANA at 2 5 6 7 8 9 10 13 14: 102 a.u.

Mixed results
PhoQ, residues 284 288 289 292 302 303 ASASEQ — fold induction (PhoP, residues 12 14 15 18 19 VGHWL (Escherichia coli, UniProt P23836); Sort-seq, refers to: YFP reporter; E. coli; PhoQ-PhoP variant library, with: 10 µM Mg2+; relative to: high Mg2+ state, higher = stronger signaling): 2.89

Repeated from above (series 3):
2'F-ANA at 2 4 6 7 14 15: 101 a.u.
2'F-ANA at 2 5 6 9 11 15: 57.1 a.u.
2'F-ANA at 1 2 3 5 8 9 12 14 15: 52.4 a.u.
2'F-ANA at 1 2 3 5 6 9 10 12 15: 53.2 a.u.
2'F-ANA at 1 4 5 6 11 13: 51 a.u.
2'F-ANA at 2 5 6 10 13: 46.1 a.u.
2'F-ANA at 2 5 6 7 8 9 10 13 14: 102 a.u.
